Published values pooled from the literature.
Target: Proto-oncogene tyrosine-protein kinase ROS (ROS1, Homo sapiens, UniProt P08922)

O=C(Nc1ccc(Oc2ncnc3[nH]cc(-c4ccccc4)c23)c(F)c1)c1c2n(n(-c3cc(F)ccc3F)c1=O)CCCC2  inhibition (enzyme activity, inhibitor; 0.5 µM): -7%
Nc1ncc2c(n1)-c1c([nH]c3ccc(C4=CCOCC4)cc13)CCC2  remaining binding (binding, competition with immobilised ligand; 1 µM): 100%
Cc1cccc(O[C@H]2CCC[C@@H](C(C)CNCc3ccncc3)C2)c1 (relative stereo)  inhibition (cell-free assay; 1 µM): 5%
C=CC(=O)Nc1cccc(-c2cnc3[nH]cc(C(=O)NC(C)(C)C)c3n2)c1  inhibition (enzyme activity, inhibitor; 0.1 µM): 3%
CN1CCN(Cc2ccc(-c3ccc(CO[C@H]4CCC[C@@H]4NC(=O)c4cc(-c5cnn(C)c5)cnc4N)cc3)cc2)CC1  inhibition (enzyme activity, inhibitor; 0.1 µM): 3%
C=CC(=O)N1Cc2nc(-c3cc(-c4cc(Cl)cnc4Cl)c(F)cc3F)n(-c3ccncn3)c2C1  inhibition (cell-free assay; 1 µM): 3.6%
NC(=O)[C@@H](O)C[C@H]1CCc2sc3ncnc(O[C@H]4CC[C@H](N5CCOCC5)CC4)c3c21  inhibition (enzyme activity, inhibitor; 10 µM): 60%
C=CC(=O)N1CCCC(n2c(=O)c3ncccc3n(Cc3ccc(Oc4ccccc4)cc3)c2=O)C1 (stereo not shown)  remaining binding (cell-free assay, competition with immobilised ligand; 1 µM): 99%
CCN1CCN(Cc2ccc(C(=O)Nc3ccc(C)c(NCc4cnc5[nH]ccc5c4OC)c3)cc2C(F)(F)F)CC1  remaining binding (binding, competition with immobilised ligand; 1 µM): 97%
CNC(=O)C[C@H](Cc1ccc(C#N)cc1)NC(=O)c1cc(-c2ccc(CN[C@H](C)c3ccc(C)cc3)o2)ccc1Cl  activity vs control (enzyme activity, inhibitor; 1 µM): 124%
O=C=[N][Ru-4]123([n]4c5ccc(O)cc5c5c6c(c7cc(F)c[n+]1c7c54)C(=O)NC6=O)[S+]1CC[S+]2CC[S+]3CC1 (stereo not shown)  remaining activity (enzyme activity; 100 nM, human enzyme, with: 10 µM ATP; baseline: untreated): 102%
COc1cc(Nc2nc(C)cc(-c3cnn4nc(OC)ccc34)n2)cc(C(F)(F)F)c1  remaining binding (binding, competition with immobilised ligand; 1 µM): 91%
Cc1cnc2nc1Nc1cccc(c1)COC/C=C/COCc1cc(ccc1OCCN1CCOCC1)N2  remaining binding (binding, competition with immobilised ligand; 0.1 µM): 63%
COc1c(OCCCN2CCOCC2)ccc2c1N=C(NC(=O)c1cnc(N)nc1)N1CCN=C21  remaining activity (kinase activity, inhibitor; 1 µM; baseline: untreated control): 109%
O=c1c(-c2ccc(Cl)c(CN3CCOCC3)c2)coc2cc(O)ccc12  remaining activity (enzyme activity, inhibitor; 1 µM): 104%
Nc1ncc(-c2cc(-c3cnn(CC(F)(F)F)c3)ncc2F)nc1C(=O)NC1CNCC(F)C1 (stereo not shown)  remaining activity (enzyme activity; 1 µM; baseline: DMSO control): 26.9%

Repeated from above:
COc1cc(Nc2nc(C)cc(-c3cnn4nc(OC)ccc34)n2)cc(C(F)(F)F)c1  remaining binding (binding, competition with immobilised ligand; 1 µM): 91%
